Experimental data from different studies.
Numbered parts are unrelated; each lists some results of a single study.

Set 1
Target: TAR DNA-binding protein 43, full length, His tag (TARDBP, Homo sapiens, UniProt Q13148, residues 1-414)
Method: RNA Bind-n-Seq
Form: RNA
Matrix: in vitro
Tested at: 20 nM
Setting: 6-mer, flanks averaged, single round
With: 150 mM KCl
Baseline: input library
Direction: higher = stronger binding
`CUAAAA` — result for “6-mer enrichment (R)”: 0.638.
`CGGUCC` — result for “6-mer enrichment (R)”: 0.79.
Under “6-mer enrichment (R)”, `UUUAUC` is recorded as 0.591.
`GGUAUC` — result for “6-mer enrichment (R)”: 0.851.
For `GCCAUG`, “6-mer enrichment (R)” read 0.951.
Under “6-mer enrichment (R)”, `ACCUUA` is recorded as 0.585.
`GACCCG` — result for “6-mer enrichment (R)”: 0.855.
For `AAGCCU`, “6-mer enrichment (R)” read 0.632.
`AUGGUA` — result for “6-mer enrichment (R)”: 0.843.
Under “6-mer enrichment (R)”, `CUCCUC` is recorded as 0.576.
Under “6-mer enrichment (R)”, `AGGUUU` is recorded as 0.685.
`GCACAA`: “6-mer enrichment (R)” 0.798.
`CCUGGG`: “6-mer enrichment (R)” 1.78.
`UCCGUG` — result for “6-mer enrichment (R)”: 0.812.
`GUAUGU` — result for “6-mer enrichment (R)”: 1.3.
For `AUCCGU`, “6-mer enrichment (R)” read 0.579.
`ACGCUA`: “6-mer enrichment (R)” 0.626.
`CGUCCG` — result for “6-mer enrichment (R)”: 0.801.
For `AUUGGA`, “6-mer enrichment (R)” read 0.772.
For `GUGUUC`, “6-mer enrichment (R)” read 0.786.
`UAAAAG` — result for “6-mer enrichment (R)”: 0.75.
Under “6-mer enrichment (R)”, `GGAGCA` is recorded as 1.66.

Set 2
Target: TATA-box-binding protein 1 (TBP1, Arabidopsis thaliana, UniProt P28147, residues 1-200, full length assumed)
Method: protein-binding microarray
Form: double-stranded DNA, one strand shown
Matrix: in vitro
Tested at: not given
Setting: k-mer, scored over probes, only values ≥0.25
Direction: higher = stronger binding
Target sequence (chain): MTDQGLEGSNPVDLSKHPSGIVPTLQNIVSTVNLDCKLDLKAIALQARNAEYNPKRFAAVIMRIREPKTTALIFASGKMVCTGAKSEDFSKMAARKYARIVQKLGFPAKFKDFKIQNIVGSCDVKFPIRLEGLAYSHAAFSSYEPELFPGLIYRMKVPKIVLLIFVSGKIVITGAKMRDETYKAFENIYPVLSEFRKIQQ
`TCCTTAA` has an E-score of 0.261.
`AGTTTTA` gave an E-score of 0.289.
`TTATAAA` has an E-score of 0.475.
With `ATAAATA` the E-score was 0.477.
`CGCTTTA` gave an E-score of 0.285.
`AATTTAT` gave an E-score of 0.425.
The E-score of `ATAATGA` is reported as 0.296.
The E-score of `GGGTTTA` is reported as 0.273.
The E-score of `CTGTATA` is reported as 0.318.
For `ATAAGCA`, the E-score was 0.267.
`GGTATAA` has an E-score of 0.394.
With `ATAAGCC` the E-score was 0.268.
With `ATATAGG` the E-score was 0.422.
For `ACCTTTA`, the E-score was 0.268.
`AAAATGT` gave an E-score of 0.266.
`GATTAAA` has an E-score of 0.348.
The E-score of `GGCTTTA` is reported as 0.281.

Set 3
Target: Centromere-binding protein 1, full length, His-tagged (CBF1, Saccharomyces cerevisiae, UniProt P17106, residues 1-351)
UniProt P17106, sequence (whole entry, looked up): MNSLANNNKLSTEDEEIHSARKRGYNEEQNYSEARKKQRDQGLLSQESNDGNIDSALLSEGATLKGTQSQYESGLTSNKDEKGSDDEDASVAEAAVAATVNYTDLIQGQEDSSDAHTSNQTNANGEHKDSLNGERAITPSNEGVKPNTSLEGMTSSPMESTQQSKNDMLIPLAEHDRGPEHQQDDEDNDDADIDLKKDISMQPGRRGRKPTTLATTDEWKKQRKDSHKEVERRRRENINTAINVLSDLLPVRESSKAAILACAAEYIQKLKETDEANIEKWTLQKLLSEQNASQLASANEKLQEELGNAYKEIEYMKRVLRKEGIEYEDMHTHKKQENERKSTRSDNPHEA
Method: competition protein-binding microarray
Form: double-stranded DNA, one strand shown
Matrix: in vitro
Tested at: 2 µM
Setting: whole 60-bp probe, lowest competitor level
With: Pho4 competitor, 0.05 µM
Direction: higher = stronger binding
All sequences stand within: … GTCTTGATTCGCTTGACGCTGCTG
The fluorescence intensity of `CATACCCAACCTTGTCACATAACTTAAGATATTTGT` is reported as 91.4 a.u.
For `CCAGTTTTGGACTGTCACACTGCTCCCATTGCTTGT`, the fluorescence intensity was 88.7 a.u.
`GCCGCTGCACAATCTGGCGTGCCAGTAAAGCAATAT` has a fluorescence intensity of 99.5 a.u.
The fluorescence intensity of `CGTCCTAGTGATTGGACAGTGGGTGCCATGAGGAAG` is reported as 80.4 a.u.
With `GTCTTGTCTCATTGAGGGGTGGGTGTCCCCACTTCA` the fluorescence intensity was 68.7 a.u.
`CGTCCTAGTGATTTTCACGTGAAGTCCATGAGGAAG` has a fluorescence intensity of 787 a.u.
The fluorescence intensity of `CATACCCAACCTTGGCCAGTGGGTGAAGATATTTGT` is reported as 65.4 a.u.
With `GACCTCGTTATGGACAACGTGGTCGCTAGGGGTGGT` the fluorescence intensity was 138 a.u.
With `GACCTAAGTCAGTCAAATTGTACTATCCCTGATCCT` the fluorescence intensity was 70 a.u.
`CGTCCTAGTGATTGTACCGTGGGTGCCATGAGGAAG` gave a fluorescence intensity of 87.2 a.u.
The fluorescence intensity of `CTTTCCCGATCTTGCTCAGTGGGTGTAGCACATTTG` is reported as 59.4 a.u.
For `CGCCCCCCAGCTCGGCACGCTGGTCAACACAGGCTG`, the fluorescence intensity was 95.5 a.u.
`CGTATGGTCTGCGACCTTGGGACATACAGTAAGTAG` gave a fluorescence intensity of 61.8 a.u.
The fluorescence intensity of `GATCCCAGGGAGCGCCTCGTGCCCCAGTGACACACT` is reported as 84.9 a.u.
`GTCTTGTCTCATTGGGTGGTGGGTGTCCCCACTTCA` has a fluorescence intensity of 84.3 a.u.
`CTCCAGAAATCGGGCCACATGACAAAGCCCGTAGAC` has a fluorescence intensity of 221 a.u.
`CGGGGTTAAGTTTTTCACGTGAGTTGCTTGCAGCAG` gave a fluorescence intensity of 923 a.u.
For `CTTTCCCGATCTTTCCACGTGTTTTTAGCACATTTG`, the fluorescence intensity was 808 a.u.
For `AAATTACTAAGTTTTCACGTGTCATACCCCGTATGA`, the fluorescence intensity was 1320 a.u.

Set 4
Target: Histone acetyltransferase KAT6A, winged helix 1, GST fusion (KAT6A, Homo sapiens, UniProt Q92794, residues 1-85)
Method: protein binding microarray
Form: double-stranded DNA, one strand shown
Matrix: in vitro
Tested at: not given
Setting: 8-mer, flanks averaged, mean of 2 arrays, mostly near background
Baseline: not given
Direction: higher = stronger binding
Target sequence (chain): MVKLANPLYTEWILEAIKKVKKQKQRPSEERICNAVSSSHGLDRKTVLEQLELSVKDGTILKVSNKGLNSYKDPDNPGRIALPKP
`AAGCGCGA` has an E-score of 0.302.
With `ATAATGCA` the E-score was -0.0703.
For `ATCGTGTA`, the E-score was -0.204.
`AAGGTTGC` gave an E-score of 0.0686.
With `AACGTACT` the E-score was -0.062.
With `GCGTCGTA` the E-score was 0.321.
`TACAGTGA` gave an E-score of -0.185.
With `CGACCATC` the E-score was -0.068.
`ATCTTGGC` has an E-score of -0.2.
For `CGCTTATA`, the E-score was 0.251.
For `CTTCTGCA`, the E-score was -0.0934.
The E-score of `AGTTTGGC` is reported as 0.00886.
For `AGCCAGGA`, the E-score was -0.163.
`CTGGACGC` has an E-score of 0.073.
`TGGCGCAA` gave an E-score of 0.187.
`CCAGCGGC` gave an E-score of 0.289.
`CCAGACTA` gave an E-score of -0.227.
The E-score of `ACGGGAGA` is reported as 0.09.
The E-score of `TCTAATAA` is reported as -0.0657.
`AGAAGAAG` gave an E-score of -0.174.
For `AGTCGAGA`, the E-score was -0.182.
`ACAGTCAA` gave an E-score of -0.209.
For `CCAGCCGG`, the E-score was 0.101.

Set 5
Target: Prothrombin, mature alpha-thrombin (F2, Homo sapiens, UniProt P00734)
Method: aptamer microarray, sandwich
Form: DNA with 2'F-ANA
Matrix: in vitro
Tested at: 200 nM
Setting: whole 15-mer aptamer, many near background
With: Cy3 exosite-II aptamer, 400 nM
Direction: higher = stronger binding
Oligonucleotide: GGTTGGTGTGGTTGG
`2'F-ANA at 3 5 6 7 11 12 13 14 15` — result for “mean fluorescence intensity”: 57.5 a.u.
For `2'F-ANA at 2 4 7 9 11 12 13`, “mean fluorescence intensity” read 344 a.u.
Under “mean fluorescence intensity”, `2'F-ANA at 3 6 7 8 10 11 12 14 15` is recorded as 366 a.u.
Under “mean fluorescence intensity”, `2'F-ANA at 1 4 8 9 12 13` is recorded as 187 a.u.
`2'F-ANA at 3 6 7 9 10 11 12 13`: “mean fluorescence intensity” 474 a.u.
`2'F-ANA at 1 3 5 10 15`: “mean fluorescence intensity” 87.3 a.u.
For `2'F-ANA at 2 3 4 7 8 11 13 15`, “mean fluorescence intensity” read 535 a.u.
For `2'F-ANA at 1 2 6 7 8 9 12 15`, “mean fluorescence intensity” read 400 a.u.
For `2'F-ANA at 1 4 5 7 9 11 14 15`, “mean fluorescence intensity” read 74.6 a.u.
`2'F-ANA at 1 2 5 10 11 12 13 14 15`: “mean fluorescence intensity” 76.2 a.u.
Under “mean fluorescence intensity”, `2'F-ANA at 1 3 8 9 10 12 15` is recorded as 117 a.u.
`2'F-ANA at 2 3 4 7 8 12`: “mean fluorescence intensity” 940 a.u.
Under “mean fluorescence intensity”, `2'F-ANA at 1 3 5 9 11 12 13 14 15` is recorded as 47.4 a.u.
`2'F-ANA at 2 3 5 6 8 9 11` — result for “mean fluorescence intensity”: 101 a.u.
For `2'F-ANA at 1 6 10 14`, “mean fluorescence intensity” read 46.4 a.u.
For `2'F-ANA at 1 3 6 8 9 10 11 12 13 14 15`, “mean fluorescence intensity” read 65.8 a.u.
For `2'F-ANA at 1 3 6 8 11 12 14 15`, “mean fluorescence intensity” read 114 a.u.
`2'F-ANA at 2 4 9 10 11 12 15` — result for “mean fluorescence intensity”: 119 a.u.

Set 6
Target: Sal-like protein 4, full length isoform B (SALL4, Homo sapiens, UniProt Q9UJQ4-2, residues 1-616)
Method: universal PBM
Form: double-stranded DNA, one strand shown
Matrix: in vitro
Tested at: not given
Setting: 8-mer, flanks averaged, mean of replicates
Direction: higher = stronger binding
The E-score of `GAGATCGC` is reported as -0.203.
For `GAGTCGCA`, the E-score was -0.101.
The E-score of `CAGGTATC` is reported as 0.066.
`CATTGGGA` has an E-score of -0.0604.
For `GATCCGGA`, the E-score was -0.0968.
For `ATACCTTG`, the E-score was 0.171.
The E-score of `CCATTTTA` is reported as 0.151.
`GCTCTAAA` gave an E-score of -0.0979.
The E-score of `GCACCAGC` is reported as -0.291.
For `CTCTAACC`, the E-score was -0.281.
`GAATTGGA` gave an E-score of 0.0622.
`CCATGGAC` gave an E-score of -0.28.
`AAGAAGGT` has an E-score of 0.0133.
With `CCCTCCCG` the E-score was -0.263.
With `ATTTGCGC` the E-score was -0.0282.
The E-score of `ATCGGGGA` is reported as 0.00833.
`CTCTTTCC` has an E-score of -0.288.
With `GTCTAGTA` the E-score was 0.154.
For `TCGGACCA`, the E-score was -0.155.
With `GCATACGA` the E-score was -0.018.
`CAACTTTA` gave an E-score of 0.202.
`CTGCCACC` has an E-score of -0.187.
`CCCGACCG` gave an E-score of -0.32.
`GTGGCACA` has an E-score of -0.154.
With `CTAACAAC` the E-score was -0.00414.

A few entries again (set 6):
With `CCCTCCCG` the E-score was -0.263.
`GCTCTAAA` gave an E-score of -0.0979.
For `CTCTAACC`, the E-score was -0.281.
With `GCATACGA` the E-score was -0.018.
The E-score of `GAGATCGC` is reported as -0.203.
For `GAGTCGCA`, the E-score was -0.101.
For `GATCCGGA`, the E-score was -0.0968.
`AAGAAGGT` has an E-score of 0.0133.
`CAACTTTA` gave an E-score of 0.202.
`CCATGGAC` gave an E-score of -0.28.
With `ATTTGCGC` the E-score was -0.0282.
